Experimental data collected from several papers.
Protocols differ between the studies behind these lines. Values joined by “and” are separate records of one study, mostly repeats; a detail may differ. Numbers after ± are the reported error.
HLA class I histocompatibility antigen, A alpha chain allele A*24:02: HLA class I histocompatibility antigen, A alpha chain, allele A*24:02 (Homo sapiens, UniProt P04439)
Chain of UniProt P48067 (whole entry, looked up): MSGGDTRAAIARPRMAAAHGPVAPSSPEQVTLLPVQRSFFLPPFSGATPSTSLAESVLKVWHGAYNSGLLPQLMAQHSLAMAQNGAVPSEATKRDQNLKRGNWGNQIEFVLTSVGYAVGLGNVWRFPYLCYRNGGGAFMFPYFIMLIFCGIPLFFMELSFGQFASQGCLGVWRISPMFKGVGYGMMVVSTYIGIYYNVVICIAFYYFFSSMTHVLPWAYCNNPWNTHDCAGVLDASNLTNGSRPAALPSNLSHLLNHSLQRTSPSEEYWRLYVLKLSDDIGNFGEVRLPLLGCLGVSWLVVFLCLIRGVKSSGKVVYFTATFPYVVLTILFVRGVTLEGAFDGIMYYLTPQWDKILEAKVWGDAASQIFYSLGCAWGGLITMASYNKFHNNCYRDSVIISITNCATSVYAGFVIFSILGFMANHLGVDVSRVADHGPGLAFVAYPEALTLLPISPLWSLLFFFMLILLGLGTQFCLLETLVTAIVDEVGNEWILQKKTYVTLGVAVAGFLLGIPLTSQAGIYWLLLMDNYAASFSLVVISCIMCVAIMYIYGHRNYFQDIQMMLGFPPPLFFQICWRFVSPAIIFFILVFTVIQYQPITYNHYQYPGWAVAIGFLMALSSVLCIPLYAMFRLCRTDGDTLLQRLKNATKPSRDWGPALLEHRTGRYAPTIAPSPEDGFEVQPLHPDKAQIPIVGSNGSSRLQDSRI
Chain of UniProt Q64663 (whole entry, unmodified, looked up): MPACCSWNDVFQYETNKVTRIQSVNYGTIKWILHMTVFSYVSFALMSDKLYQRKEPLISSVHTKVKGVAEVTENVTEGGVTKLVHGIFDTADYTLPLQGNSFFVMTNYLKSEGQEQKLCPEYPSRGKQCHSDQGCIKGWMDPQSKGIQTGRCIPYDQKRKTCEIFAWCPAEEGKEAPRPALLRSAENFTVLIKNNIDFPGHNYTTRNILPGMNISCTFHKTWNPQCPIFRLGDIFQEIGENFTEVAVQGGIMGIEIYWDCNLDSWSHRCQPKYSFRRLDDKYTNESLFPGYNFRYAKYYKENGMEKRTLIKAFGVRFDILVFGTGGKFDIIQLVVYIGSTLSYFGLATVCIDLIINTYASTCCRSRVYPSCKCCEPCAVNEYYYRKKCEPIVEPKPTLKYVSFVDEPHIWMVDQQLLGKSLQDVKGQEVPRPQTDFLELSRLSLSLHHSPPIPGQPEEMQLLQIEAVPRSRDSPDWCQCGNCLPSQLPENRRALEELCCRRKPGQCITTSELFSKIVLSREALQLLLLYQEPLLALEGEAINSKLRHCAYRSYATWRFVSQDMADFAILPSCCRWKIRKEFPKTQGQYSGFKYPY

ACEQNPIYWARYADWLFTTPLLLLDLALLVDADEGT  mean fluorescence intensity (ex vivo fluorescence imaging; peptide, BALB/c mice, 4T1 tumour-bearing, liver; intravenous, 5 nmol, 4 h post-injection; higher = more uptake): 1980 ± 27.9 a.u.
colistin  MIC (Acinetobacter baumannii; broth microdilution; clinical isolate RKI-No_70/16): 64 µg/mL
cotadutide  metabolite level (metabolomics, measured: hepatic valine; ob/ob mice on AMLN diet, NASH model, liver; dose not given): 1.05 ± 0.04 scaled intensity
ILEAAKSIAAATSALVKAASAAQRE  rupture force FWHM upper side (vinculin head domain Vd1; complex rupture, AFM single-molecule force spectroscopy; peptide; single traces, C-terminal pulling, 800 nm/s): 13.8 pN
maraviroc  TEER (HBMEC; ECIS; 2.5 µM): no effect
TLIMWIERV  reporter activation (Jurkat T cells expressing 1G4 TCR; NFAT-eGFP reporter, fluorescence microscopy; peptide; concentration not given, HLA-A*02:01 NY-ESO system): 0.00248%
hemoglobin beta  co-IP enrichment (co-immunoprecipitation; human RBC membrane; DSSO crosslinker, unit not given, with: Band 3 peptide 1-56 bait; baseline: negative control): 2470
BzATP  normalized current (P2X purinoceptor 7 (P2rx7, Rattus norvegicus, UniProt Q64663); ion current, agonist, two-electrode voltage clamp; Xenopus laevis oocytes; 3.70 µM; baseline: highest concentration response): 0.9
EKPIDSETKM  binding intensity (human MAGI1-2/6 PDZ construct (MBP fusion); automated holdup; peptide, crude extract; concentration not given, uncorrected, unit not given; baseline: biotin control resin, higher = stronger binding): 0.785
FNA / CGLSGLGVA-NH2 ([18F]FNA-labelled, C-amide)  tissue uptake (gamma counting; peptide, glioblastoma mice, brown adipose tissue; 60 min, with: CooP blocking, 500-fold excess): 0.18 %ID/g
human immunoglobulin gamma-1 constant  co-IP enrichment (co-immunoprecipitation; human RBC membrane; DMTMM crosslinker, unit not given, with: Band 3 peptide 1-56 bait; baseline: negative control): 0
GLMQWNYRA  reporter activation (Jurkat T cells expressing 1G4 TCR; NFAT-eGFP reporter, flow cytometry; peptide; concentration not given, HLA-A*02:01 NY-ESO system): 0.24%
milbemycin oxime  OD600 (Saccharomyces cerevisiae; cell growth; Pdr5 deleted, Cdr1 overexpressed; 2^-5.966 µg/mL, with: fluconazole 1 µg/mL): 0.971 and 1.01 and 1.02
CCT3  co-IP enrichment (co-immunoprecipitation; human RBC membrane; DSSO crosslinker, unit not given, with: Band 3 peptide 1-56 bait; baseline: negative control): 239
NPDALPETLV  binding intensity (human SCRIB PDZ3-4 tandem (MBP fusion); automated holdup; peptide, purified PDZ protein; concentration not given, unit not given; baseline: biotin control resin, higher = stronger binding): 0.339
thimet oligopeptidase  co-IP enrichment (co-immunoprecipitation; human RBC cytosol; DSSO crosslinker, unit not given, with: Band 3 peptide 1-56 bait; baseline: negative control): 0
GLFQWTARA  reporter activation (Jurkat T cells expressing 1G4 TCR; NFAT-eGFP reporter, flow cytometry; peptide; concentration not given, HLA-A*02:01 NY-ESO system): 0.22%
TSTVQLIMQL  binding score (HLA class I histocompatibility antigen, A alpha chain allele A*24:02; conformational ELISA; peptide; concentration not given; baseline: positive control peptide, direction not given): 2%
KDECVIATEV  binding intensity (human SCRIB PDZ3-4 tandem (MBP fusion); automated holdup; peptide, crude extract; concentration not given, corrected by standard peak, unit not given; baseline: biotin control resin, higher = stronger binding): 0.26
insulin degludec  AUClast (human; subcutaneous, 0.4 IU/kg, 2 FC level, single dose, reference formulation): 611 ± 65 ng·h/mL
GLLEWTDRV  reporter activation (Jurkat T cells expressing 1G4 TCR; NFAT-eGFP reporter, flow cytometry; peptide; concentration not given, HLA-A*02:01 NY-ESO system): 0.15%
QDEKVKESYV  binding intensity (human MAGI1-3/6 PDZ construct (MBP fusion); automated holdup; peptide, crude extract; concentration not given, corrected by standard peak, unit not given; baseline: biotin control resin, higher = stronger binding): 0.776
methyl-β-cyclodextrin  glycine uptake rate (SLC6A9 (Homo sapiens, UniProt P48067); transport activity, [3H]glycine uptake; 2.5 mg/mL, 1 min, with: glycine 37.5 µM; higher = more transport): 14.1 a.u. and 14.2 a.u. and 14.3 a.u. and 14.4 a.u.
ACDDQNPWRAYLDLLFPTDTLLLDLLW  mean fluorescence intensity (ex vivo fluorescence imaging; peptide, BALB/c mice, 4T1 tumour-bearing, kidney; intravenous, 5 nmol, 4 h post-injection; higher = more uptake): 1150 ± 327 a.u.
SEC11A  co-IP enrichment (co-immunoprecipitation; human plasma; unit not given, with: Band 3 peptide 1-56 bait; baseline: negative control): 0.527
CTGTTACTCT  MIC (Salmonella enterica Typhimurium; broth microdilution; peptide, SL1344; range over 0.3-10 µM, 24 h, 37 °C, Mueller-Hinton broth): > 10 µM
MTVCNASQRQAHAQATAVSL  selectivity ratio (BEAS-2B normal bronchial epithelial; phage binding output/input; peptide; baseline: control phage): 2.7 ± 1.3
human serum albumin  co-IP enrichment (co-immunoprecipitation; human RBC cytosol; DMTMM crosslinker, unit not given, with: Band 3 peptide 1-56 bait; baseline: negative control): 64.8
SLLQWVSMV  reporter activation (Jurkat T cells expressing 1G4 TCR; NFAT-eGFP reporter, fluorescence microscopy; peptide; concentration not given, HLA-A*02:01 NY-ESO system): 0.00797%
insulin aspart  AUC(0-t) (ELISA, measured: total insulin aspart; human, type 1 diabetes, serum; subcutaneous, dose not given, least squares mean): 1.29 nM·h
GSGAGPETLV  normalised SPR binding response (human SCRIB PDZ3-4 tandem (MBP fusion); surface plasmon resonance; peptide; concentration not given; higher = stronger binding): 42.2 normalised RU
human delta-aminolevulinic acid dehydratase  co-IP enrichment (co-immunoprecipitation; human RBC membrane; unit not given, with: Band 3 peptide 1-56 bait; baseline: negative control): 0
ALLQWVSQV  reporter activation (Jurkat T cells expressing 1G4 TCR; NFAT-eGFP reporter, flow cytometry; peptide; concentration not given, HLA-A*02:01 NY-ESO system): 70.9%
GEMVGQARILAQATSDLVNAIKDA  rupture force FWHM upper side (vinculin head domain Vd1; complex rupture, AFM single-molecule force spectroscopy; peptide; double traces, C-terminal pulling, 800 nm/s): 9.14 pN
TASPAKETSF  binding intensity (human SCRIB PDZ3-4 tandem (MBP fusion); automated holdup; peptide, crude extract; concentration not given, corrected by standard peak, unit not given; baseline: biotin control resin, higher = stronger binding): 0.774
human retinal dehydrogenase 1  co-IP enrichment (co-immunoprecipitation; human plasma; unit not given, with: Band 3 peptide 1-56 bait; baseline: negative control): 0
11-deoxycorticosterone  Kd (CYP11B2 (human); substrate binding, stopped-flow global kinetic fitting; purified enzyme; model, 4-state, linear IF, with: equimolar adrenodoxin): 2060 nM
RLFEWVPRL  reporter activation (Jurkat T cells expressing 1G4 TCR; NFAT-eGFP reporter, fluorescence microscopy; peptide; concentration not given, HLA-A*02:01 NY-ESO system): 0.00879%
GSGAGQITKV  normalised SPR binding response (human SCRIB PDZ3-4 tandem (MBP fusion); surface plasmon resonance; peptide; concentration not given; higher = stronger binding): 0 normalised RU
ALLQWVSTV  reporter activation (Jurkat T cells expressing 1G4 TCR; NFAT-eGFP reporter, flow cytometry; peptide; concentration not given, HLA-A*02:01 NY-ESO system): 0.29%
epoetin alfa  mRNA level (UT7/EPO; microarray, measured: EPAS1 mRNA (probe set 242868_at); 5 U/mL, 90 min; baseline: vehicle): 5.6 fold
sacituzumab  Kd (canine TROP2; binding, bio-layer interferometry): no binding
Peginesatide  phosphorylation level (UT7/EPO; tyrosine phosphorylation, LC-MS/MS phosphoproteomics, GluC, measured: STAT5B tyrosine 682; 10 nM, 15 min, with: 10 U/mL EPO; baseline: vehicle): 86.1 fold
GSGAGKETSF  binding intensity (human SCRIB PDZ3-4 tandem (MBP fusion); automated holdup; peptide, purified PDZ protein; concentration not given, unit not given; baseline: biotin control resin, higher = stronger binding): 0.834
Polymyxin B  NADH level (Staphylococcus aureus; CMCC 26003; concentration not given): 3.8 pmol/µL and 4.64 pmol/µL and 3.52 pmol/µL
LMPFGSLLDYV  binding score (HLA class I histocompatibility antigen, A alpha chain allele A*24:02; conformational ELISA; peptide; concentration not given; baseline: positive control peptide, direction not given): 2.7%

Some of these lines once more:
ALLQWVSTV  reporter activation (Jurkat T cells expressing 1G4 TCR; NFAT-eGFP reporter, flow cytometry; peptide; concentration not given, HLA-A*02:01 NY-ESO system): 0.29%
epoetin alfa  mRNA level (UT7/EPO; microarray, measured: EPAS1 mRNA (probe set 242868_at); 5 U/mL, 90 min; baseline: vehicle): 5.6 fold
sacituzumab  Kd (canine TROP2; binding, bio-layer interferometry): no binding
Peginesatide  phosphorylation level (UT7/EPO; tyrosine phosphorylation, LC-MS/MS phosphoproteomics, GluC, measured: STAT5B tyrosine 682; 10 nM, 15 min, with: 10 U/mL EPO; baseline: vehicle): 86.1 fold
GSGAGKETSF  binding intensity (human SCRIB PDZ3-4 tandem (MBP fusion); automated holdup; peptide, purified PDZ protein; concentration not given, unit not given; baseline: biotin control resin, higher = stronger binding): 0.834
